Measurements of several laboratories.
Numbered parts are unrelated; each lists some results of a single study.

Study 1 — technique: protein-binding microarray; form: double-stranded DNA, one strand shown; medium: in vitro; concentration: 940 nM top; setting: 60-bp whole probe; with: salmon DNA 0.4 mg/ml; relative to: random background probes; reading: higher = stronger binding; measurement: fitted relative affinity; all sequences stand within: GCCTAGCAC … GTCTTGATTCGCTTGACGCTGCTG
Target: Interferon regulatory factor 5, full length, phosphomimetic (IRF5, Homo sapiens, UniProt Q13568-2, residues 1-514, S451D/S453D/S456D/S462D)
Oligonucleotide = GACGGTTTCCTTTTCCTAACGTGCTAG; result = 2.02 z-score
Oligonucleotide = TCAGGACTGCTTTTCCTTTAGTGCTAG; result = 0.123 z-score
Oligonucleotide = GACGGTATCGGACTGGGGAGGTGCTAG; result = 2.63 z-score
Oligonucleotide = AAATATTTACCTCTCACGCAGTGCTAG; result = 0.104 z-score
Oligonucleotide = GACGGTTTCGGGTATCAGGACGTGCTA; result = 9.38 z-score
Oligonucleotide = TTAGAACTCGGGTTTCGATTAGTGCTA; result = 4.88 z-score

Study 2 — technique: universal PBM; form: double-stranded DNA, one strand shown; medium: in vitro; concentration: 600 nM; reading: higher = stronger binding; measurement: E-score
Target: Sal-like protein 4, full length isoform A (SALL4, Homo sapiens, UniProt Q9UJQ4, residues 1-1053)
UniProt Q9UJQ4, sequence (whole entry, looked up): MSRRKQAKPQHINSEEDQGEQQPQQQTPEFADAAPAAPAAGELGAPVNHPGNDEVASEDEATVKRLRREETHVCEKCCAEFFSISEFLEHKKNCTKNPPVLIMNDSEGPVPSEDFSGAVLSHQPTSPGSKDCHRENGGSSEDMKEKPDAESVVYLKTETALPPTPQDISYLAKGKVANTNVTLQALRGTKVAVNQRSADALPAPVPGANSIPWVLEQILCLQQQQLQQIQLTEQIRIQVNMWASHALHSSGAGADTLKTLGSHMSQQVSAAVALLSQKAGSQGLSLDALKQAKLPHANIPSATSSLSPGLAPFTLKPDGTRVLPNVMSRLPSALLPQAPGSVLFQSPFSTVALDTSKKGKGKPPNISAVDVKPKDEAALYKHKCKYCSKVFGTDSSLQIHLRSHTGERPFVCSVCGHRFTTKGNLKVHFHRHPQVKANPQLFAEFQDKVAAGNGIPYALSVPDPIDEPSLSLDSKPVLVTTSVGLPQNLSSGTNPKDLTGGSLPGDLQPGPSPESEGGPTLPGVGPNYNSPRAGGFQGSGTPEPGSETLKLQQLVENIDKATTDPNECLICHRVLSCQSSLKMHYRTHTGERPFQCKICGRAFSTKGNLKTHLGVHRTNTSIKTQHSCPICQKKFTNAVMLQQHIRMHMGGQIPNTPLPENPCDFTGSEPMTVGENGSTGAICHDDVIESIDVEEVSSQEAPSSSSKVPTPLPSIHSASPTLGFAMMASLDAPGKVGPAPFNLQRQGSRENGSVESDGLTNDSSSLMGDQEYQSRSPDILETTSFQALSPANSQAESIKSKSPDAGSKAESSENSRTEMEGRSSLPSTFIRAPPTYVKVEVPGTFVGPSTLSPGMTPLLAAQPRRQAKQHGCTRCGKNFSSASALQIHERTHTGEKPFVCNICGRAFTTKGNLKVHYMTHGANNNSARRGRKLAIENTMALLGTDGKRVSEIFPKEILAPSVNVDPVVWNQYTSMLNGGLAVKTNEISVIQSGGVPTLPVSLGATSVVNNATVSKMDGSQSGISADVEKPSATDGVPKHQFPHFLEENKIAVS
Setting: 8-mer, flanks averaged, mean of replicates
Oligonucleotide = ACTGAGGA; result = -0.105
Oligonucleotide = TACCGGGA; result = -0.161
Oligonucleotide = AACAAGGA; result = 0.195
Oligonucleotide = GAGACGCC; result = -0.252
Oligonucleotide = TACAGAGA; result = 0.07
Oligonucleotide = CAGAGAAC; result = -0.0422

Study 3 — technique: competition protein-binding microarray; form: double-stranded DNA, one strand shown; medium: in vitro; concentration: 2 µM; with: Pho4 competitor, 0.05 µM; reading: higher = stronger binding; measurement: fluorescence intensity; all sequences stand within: … GTCTTGATTCGCTTGACGCTGCTG
Target: Centromere-binding protein 1, full length, His-tagged (CBF1, Saccharomyces cerevisiae, UniProt P17106, residues 1-351)
UniProt P17106, sequence (whole entry, looked up): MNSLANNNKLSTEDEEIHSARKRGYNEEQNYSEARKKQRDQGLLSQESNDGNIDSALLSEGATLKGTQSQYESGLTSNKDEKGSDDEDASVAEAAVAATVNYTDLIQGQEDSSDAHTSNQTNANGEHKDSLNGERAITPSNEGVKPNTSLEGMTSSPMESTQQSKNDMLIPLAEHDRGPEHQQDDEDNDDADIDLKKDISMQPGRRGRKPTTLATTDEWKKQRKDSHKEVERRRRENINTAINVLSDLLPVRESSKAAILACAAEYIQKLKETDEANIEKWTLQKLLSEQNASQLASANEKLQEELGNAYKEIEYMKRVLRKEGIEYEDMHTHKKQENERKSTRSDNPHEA
Setting: whole 60-bp probe, lowest competitor level
Oligonucleotide = CTAACGAAGGTTTGTTCCGTGGGTGACAAGCCAAGT; result = 62 a.u.
Oligonucleotide = TGCGCAACAACTTTTCACGTGTGTTTATGTCTAGAA; result = 841 a.u.
Oligonucleotide = TACCCCATAATTTTGCACGTGACGGGTTTGTATTAC; result = 8710 a.u.
Oligonucleotide = CTTTCCCGATCTTGCCCGGTGGGTGTAGCACATTTG; result = 77.8 a.u.
Oligonucleotide = CTTTCCCGATCTTGAGGAGTGGGTGTAGCACATTTG; result = 71.4 a.u.
Oligonucleotide = TTACAAGTTATGCCTCACGTTACCTGGATCCTGCAT; result = 215 a.u.

Mixed results
Substance = PhoQ, residues 284 288 289 292 302 303 TASMAF; target = PhoP, residues 12 14 15 18 19 SQCLL (Escherichia coli, UniProt P23836); assay = Sort-seq, item: YFP reporter; system = E. coli; setting = PhoQ-PhoP variant library, with: 10 µM Mg2+; how to read = relative to: high Mg2+ state, higher = stronger signaling; measurement = fold induction; result = 17.2

For quick reference, copied from above (study 1):
Oligonucleotide = AAATATTTACCTCTCACGCAGTGCTAG; result = 0.104 z-score
